Assay results of several laboratories.
Every numbered part comes from another study and shows a few of its results, in no order.
Sequence of UniProt P60842 (whole entry, looked up): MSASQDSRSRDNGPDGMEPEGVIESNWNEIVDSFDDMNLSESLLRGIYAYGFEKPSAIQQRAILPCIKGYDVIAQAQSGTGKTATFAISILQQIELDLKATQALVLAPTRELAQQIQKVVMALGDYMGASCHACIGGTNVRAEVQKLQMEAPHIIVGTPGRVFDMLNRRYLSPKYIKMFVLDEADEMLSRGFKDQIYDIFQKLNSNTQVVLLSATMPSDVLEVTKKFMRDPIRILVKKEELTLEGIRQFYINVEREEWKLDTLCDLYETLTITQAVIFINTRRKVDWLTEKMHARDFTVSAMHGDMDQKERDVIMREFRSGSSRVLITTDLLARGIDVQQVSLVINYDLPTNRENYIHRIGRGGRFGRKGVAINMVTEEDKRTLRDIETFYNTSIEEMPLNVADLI

Sample 1
Target: Replicase polyprotein 1ab, main protease (rep, Severe acute respiratory syndrome coronavirus 2, UniProt P0DTD1)
Effect on: enzyme activity
Mode: inhibitor
Tested at: 20 µM
Setting: primary screen
Structure (SMILES)	inhibition [%]
O=C(O)/C=C/c1ccc(O)c(O)c1	29.4
CSc1ccc(C(=O)c2[nH]c(=O)[nH]c2C)cc1	84.4
CN(C)C(=S)SSC(=S)N(C)C	99.9

Sample 2
Target: Interferon regulatory factor 3, full length, phosphomimetic (IRF3, Homo sapiens, UniProt Q14653, residues 1-427, S386D/S396D/S398D/S402D/T404D/S405D)
Technique: protein-binding microarray
Form: double-stranded DNA, one strand shown
Matrix: in vitro
Tested at: 2540 nM top
Setting: 60-bp whole probe
Together with: salmon DNA 0.4 mg/ml
Relative to: random background probes
Direction: higher = stronger binding
Shared flanks, not repeated: GCCTAGCAC … GTCTTGATTCGCTTGACGCTGCTG
Construct (chain): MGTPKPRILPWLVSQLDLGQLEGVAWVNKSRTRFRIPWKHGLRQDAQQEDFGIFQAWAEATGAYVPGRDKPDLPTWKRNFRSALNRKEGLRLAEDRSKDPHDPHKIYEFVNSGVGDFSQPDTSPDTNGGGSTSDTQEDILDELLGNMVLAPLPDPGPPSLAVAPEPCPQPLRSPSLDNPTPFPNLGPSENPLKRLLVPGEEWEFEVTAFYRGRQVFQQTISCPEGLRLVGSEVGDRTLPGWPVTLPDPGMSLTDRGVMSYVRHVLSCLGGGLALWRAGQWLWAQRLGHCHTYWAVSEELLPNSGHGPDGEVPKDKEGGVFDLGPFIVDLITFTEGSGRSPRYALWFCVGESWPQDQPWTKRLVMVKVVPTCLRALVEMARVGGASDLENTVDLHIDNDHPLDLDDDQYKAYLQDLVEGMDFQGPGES
Strand	fitted relative affinity [z-score]
GACGATATCGGGCTTCGAGACGTGCTA	-0.225
GACGGTCTCGGTCTCGGAACGTGCTAG	1.57
GACGGTATGGGACTGGGGACGTGCTAG	-0.641
TTAGGACTGGGTCCCGGTTAGTGCTAG	-0.891
GACGATCTCAGTCTCGTGACGTGCTAG	0.783
TCAAATTCTCTTTTCACACTGTGCTAG	1.9
TCAGTTCTCAGACTGGGACTGTGCTAG	1.48
GACGATTTCGGAACTGGAGACGTGCTA	3.82

Sample 3
Target: RING finger protein unkempt homolog, zinc fingers 1-6, GST-SBP tag (UNK, Homo sapiens, UniProt Q9C0B0, residues 30-357)
Technique: RNA Bind-n-Seq
Form: RNA
Matrix: in vitro
Tested at: not given
Setting: RNA with constant flanks, human-mouse chimeric sites, ends assumed
Relative to: input RNA pool
Direction: higher = stronger binding
Shared flanks, not repeated: GGGAGUUCUACAGUCCGACGAUC … CAACAGAGGAUUGAGCAUCA
Target sequence (chain): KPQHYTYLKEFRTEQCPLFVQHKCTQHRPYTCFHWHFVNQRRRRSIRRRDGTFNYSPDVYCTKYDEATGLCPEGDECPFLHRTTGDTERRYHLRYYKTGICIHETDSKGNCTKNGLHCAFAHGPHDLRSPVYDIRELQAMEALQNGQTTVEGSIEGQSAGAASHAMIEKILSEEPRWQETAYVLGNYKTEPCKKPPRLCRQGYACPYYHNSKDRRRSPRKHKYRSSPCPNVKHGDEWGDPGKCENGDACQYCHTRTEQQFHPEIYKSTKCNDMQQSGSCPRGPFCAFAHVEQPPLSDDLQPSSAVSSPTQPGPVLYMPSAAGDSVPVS
Strand	bound/input enrichment
AACAGAUUGUCUUUAAGCAUUCCAAGCAAUGCUUGGGGGGUGAUCAUUGUUGCCCAUGUGCCUUCUGACUGAGCUUUAAUGCUGUUCAUCCUUGAUGCUUUCCUUCACUCCAGAAUUGUU	0.136 ratio
AAAGAGAAACUAAAGCAACUAAUAGAGAAGAGGAUUGGCAAAGAGAAUUUCAUAGAGGAAACUAGGAUUAUUAGCAAACAUGAGUUAUAUUCCAGAGGCAUCUCAGAACCCCAGCCAAAC	5.34 ratio
GUUGCCAGCUUCCGGUUCCGUUGGGCUCGGUUCUCUCCUGAGCUACGUGUCUCUACGUUUUAGGUGUGCCAUCCAACAAACAUGGAUCAGGUAAUGCUGCAGUUUGUGCCCAGCCGGCAG	0.217 ratio
GUGCCCUCCUUCUCGCUGCGGAGCCCGCCCAGCUGGGCAUUCCGGGACUGGUACCCUGCACACAGCCGCCUCUUCGAUCAAGCUUUCGGGGUGCCCCGGUUGCCCGAUGAGUGGUCGCAG	0.0866 ratio
UCGGAUGCUGUGCUGGGUCACUUUUCAUAUCCAGAUCCUUCACAGUGGACAGAUGAAGAACUGGGAAUCCCUCCUGAUGACGAGGACUGACACUGUAGACUCAGCCUACGAGUAGGAGCA	0.332 ratio
ACAGUUAUAUUGUUGAGGUUUGUAUUUAUAUAUUCUUGUAGUGUCUGCUUGCCUGUGACUUCUGGUAAAAUAAAAUAAGCCUUUGAAAAUAUUUUAGAUUUAACAUUAACAUUUUCUAAA	4.67 ratio
GUGACAGGUGUUAAGAUUUCCCCUCAGCAAAGAAGUGCAGUAGUCACCAUAAUUCCAUCUGUGGUGAGUGCCAGUCAGAUUGUGGAGCUGGUCCCAGACCUCAGUUUAGAUACUGGGACU	0.412 ratio
CUGAGGAUACCACUGAAGAGACCUUAAAAGAAUCAUUUGAGGGCUCUGUUCGUGCAAGAAUAGUCACCUGACCGGGAACUGGUUCUUUCCAAAGGGUUGGUUUUGUAGACUUUAAUAGUG	0.613 ratio

Sample 4
Target: Replicase polyprotein 1ab, nsp13 helicase (rep, Severe acute respiratory syndrome coronavirus 2, UniProt P0DTD1)
Mode: inhibitor
Tested at: 20 µM
Structure (SMILES)	inhibition [%]
NC(=O)c1cnc(N[C@@H]2CCCC[C@@H]2N)nc1Nc1cccc(-n2nccn2)c1	3.01
COc1ccc(NC(=O)c2ccc(-c3ccc(-c4noc(C)n4)cc3C)cc2)cc1OCCN(C)C	13.2
CC(C)CC(N(C)C)C1(c2ccc(Cl)cc2)CCC1 (centres unmarked)	2.61
O=C1NC(=O)C(=Cc2ccc(-c3ccc(F)cc3)o2)S1 (stereo in doubt)	7.49
COc1c(N2CCNC(C)C2)c(F)cc2c(=O)c(C(=O)O)cn(C3CC3)c12 (centres unmarked)	9.55
Cc1nc2ccc(Oc3ccc(F)cc3)cc2c(=O)n1C[C@H]1CCCN(C(C)C)C1	10.9
O=c1c(O)c(-c2ccc(O)cc2O)oc2cc(O)cc(O)c12	39.3
NC(=O)CC[C@H](N)C(=O)O	3.08
O=C1NN(C(=O)Nc2ccc(Br)cc2)[C@@H](c2ccccc2)[C@@H]1c1ccccc1	3.44
COc1cc2ncc(-c3ccccc3)nc2cc1OC	1.42
COc1cc(C(=S)N2CCOCC2)cc(OC)c1OC	-10.2
CC(C)C[C@@H](C(=O)N[C@H](C(=O)OC1CCCC1)c1ccccc1)[C@H](O)C(=O)NO	4.45
CCCOc1ccc(Br)cc1-c1cc(-c2ccc(Cl)cc2)[nH]c1-c1ccncc1	4.64
N#Cc1ccc(Cn2cncc2CN2CCN(c3cccc(Cl)c3)C(=O)C2)cc1	3.11
Cc1nnsc1C(=O)Nc1ccc(-n2nc(C(F)(F)F)cc2C(F)(F)F)cc1	3.51
Oc1cccc(O)c1	-2.22
C1Cc2[nH]nc(-c3nn[nH]n3)c2C1	6.94
CCc1cccc2c3c([nH]c12)C(CC)(CC(=O)O)OCC3 (centres unmarked)	-0.9
Cc1ccc(S(=O)(=O)NC2c3ccccc3Oc3ccccc32)cc1	-0.79
CCOC(=O)COc1ccc2c(c1)C[C@@H](NC[C@H](O)c1cccc(Cl)c1)CC2	2.12
CC[N+](C)(CC)CCC[n+]1c(-c2ccccc2)c2cc(N)ccc2c2ccc(N)cc21	97.9
NC1=NCC2c3ccccc3Cc3ccccc3N12 (centres unmarked)	2.75
CC(C(=O)O)c1ccc2c(c1)[nH]c1ccc(Cl)cc12 (centres unmarked)	16.3
Nc1c(CC(=O)O)cccc1C(=O)c1ccccc1	5.23
Nc1nonc1C(=Nc1ccc(F)c(Cl)c1)NO	5.07

Sample 5
Cell line: HEK-293T/ACE2
Tested at: concentration not given
Time: 16 (unit not given)
Relative to: vehicle
Compound	viability
CC(=O)S[C@@H]1CC2=CC(=O)CC[C@]2(C)[C@H]2CC[C@@]3(C)[C@@H](CC[C@@]34CCC(=O)O4)[C@H]12	105%
O=C(NC1CCN(CCCCC2(C(=O)NCC(F)(F)F)c3ccccc3-c3ccccc32)CC1)c1ccccc1-c1ccc(C(F)(F)F)cc1	58.4%
CCOC(=O)[C@H](CCc1ccccc1)N[C@H]1CCc2ccccc2N(CC(=O)O)C1=O	105%
Cc1cn([C@@H]2C[C@@H](O)[C@H](CO)O2)c(=O)[nH]c1=O	107%
NS(=O)(=O)c1cc2c(cc1Cl)NC(C(Cl)Cl)NS2(=O)=O (centres unmarked)	105%

Further values, each from its own experiment
Strand	target	assay	test system	setting	how to read	measurement	result
CGGA	Eukaryotic initiation factor 4A-I (EIF4A1, Homo sapiens, UniProt P60842, residues 1-406, full length assumed)	RNA Bind-n-Seq	RNA, in vitro	not given, 4-mer, random 30-nt RNA, single round, together with: RocA, ADP, phosphate	relative to: input library, higher = stronger binding	4-mer enrichment	1.3 fold

Excerpt of the above (sample 2):
Strand	fitted relative affinity [z-score]
TCAGTTCTCAGACTGGGACTGTGCTAG	1.48
TCAAATTCTCTTTTCACACTGTGCTAG	1.9
GACGGTATGGGACTGGGGACGTGCTAG	-0.641
